Results of several laboratories.
Lines come from different studies, so protocols differ.
Cell line: MDA-MB-231
Effect on: cell growth or viability

The IC50 of COc1ccc(C(c2c(C)nn(-c3ccccc3)c2O)c2c(C)nn(-c3ccccc3)c2O)cc1OC is reported as 11.1 µM (MTT; 48 h).
N=C(N)NCCC[C@H](NC(=O)[C@H](CCCNC(=N)N)NC(=O)[C@@H]1CCCN1C(=O)[C@H](CCCNC(=N)N)NC(=O)[C@H](CCCNC(=N)N)NC(=O)[C@H](CCCNC(=N)N)NC(=O)[C@H](Cc1c[nH]c2ccccc12)NC(=O)[C@H](CCCNC(=N)N)NC(=O)[C@H](CCCNC(=N)N)NC(=O)[C@H](CCCNC(=N)N)NC(=O)[C@H](CCCNC(=N)N)NC(=O)[C@H](CCCNC(=N)N)NC(=O)[C@H](Cc1c[nH]c2ccccc12)NC(=O)[C@H](CCCNC(=N)N)NC(=O)[C@H](CCCNC(=N)N)NC(=O)[C@H](Cc1ccc(O)cc1)NC(=O)[C@H](CCCNC(=N)N)NC(=O)[C@H](CCCNC(=N)N)NC(=O)[C@H](CCCNC(=N)N)NC(=O)[C@@H](N)Cc1c[nH]c2ccccc12)C(N)=O gave an IC50 of 5.2 µM (MTT; 24 h, serum-free).
With [N-]=[N+]=NCCCN1C(=O)c2cccc3cccc(c23)C1=O the IC50 was over 100 µM (MTT; 24 h).
The IC50 of Cc1nn(-c2ccccc2)c(O)c1C(c1cccc([N+](=O)[O-])c1)c1c(C)nn(-c2ccccc2)c1O is reported as 26.3 µM (MTT; 48 h).
With CCCCCCCC(=O)NCC(=O)N[C@@H](C)C(=O)N[C@@H](CC(C)C)C(=O)N[C@](C)(CC)C(=O)N[C@@H](C)C(=O)N[C@H](C(=O)N[C@@H](CC(C)C)C(=O)OC)[C@@H](C)CC the IC50 was 7 µM (MTT).
C1=CCCC=CCC1.C1=CCCC=CCC1.[Cl][Hg-]([Cl])[Cl].[Cl][Hg-]([Cl])[Cl].[Pt+][c]1ccccc1P(=Nc1ccccc1)(c1ccccc1)c1ccccc1.[Pt+][c]1ccccc1P(=Nc1ccccc1)(c1ccccc1)c1ccccc1 gave an IC50 of 0.39 µM (MTT; 24 h).
The IC50 of C[C@@H](N)[C@H](O)CCCCCCCC(=O)CCCCCCCCCCCCCC[C@@H](O[C@@H]1O[C@H](CO)[C@H](O)[C@H](O)[C@H]1O)[C@H](N)CO is reported as 2.15 µM (resazurin; 96 h).
The IC50 of Cc1cc(C)c(S(=O)(=O)N2CC2C(N)=O)c(C)c1 (stereo not drawn) is reported as 448 µM (MTT; 48 h).
C#CCCCC[C@H](C)C[C@@H](C)C(=O)N(C)[C@H](C(=O)N(C)[C@@H](Cc1ccccc1)C(=O)N1CCC[C@H]1C(=O)N1CCC[C@H]1C(C)=O)C(C)C has an IC50 of 1 µM (SRB).
With CC(C)C[C@H](NC(=O)[C@H](C)NC(=O)[C@H](CC(C)C)NC(=O)[C@@H](NC(=O)CNC(=O)[C@H](CC(C)C)NC(=O)[C@@H](N)Cc1ccccc1)C(C)C)C(=O)N[C@@H](CC(C)C)C(=O)NCC(=O)N[C@H](Cc1ccc(O)cc1)C(=O)N[C@@H](CC(C)C)C(=O)N[C@@H](C)C(=O)N[C@H](C(=O)N[C@@H](CCCNC(=N)N)C(=O)N1CCC[C@H]1C(=O)N[C@H](Cc1ccccc1)C(=O)N[C@@H](CC(C)C)C(=O)N1CCC[C@H]1C(=O)N[C@@H](CCCCN)C(=O)N[C@H](CCCCN)C(=O)N[C@@H](CCCCN)C(=O)N[C@@H](CCC(N)=O)C(=O)N[C@@H](CCC(N)=O)C(=O)N[C@@H](CCCCN)C(N)=O)C(C)C the IC50 was 12.5 µM (resazurin).
C#CCCCC[C@H](C)C[C@@H](C)C(=O)N[C@@H](C)C(=O)N1CCC[C@H]1C(=O)N[C@H](C(=O)N[C@H](C(=O)N[C@H](C(=O)N[C@@H](Cc1ccccc1)C(=O)N1CCC[C@H]1C(=O)N1CCC[C@H]1C(C)=O)C(C)C)C(C)C)C(C)C gave an IC50 of 7 µM (SRB).
For O=C(O)c1ccc([PH]([Au][Cl])(c2ccccc2)c2ccccc2)cc1, the IC50 was 16.5 µM (resazurin; 72 h).

For quick reference, copied from above:
With [N-]=[N+]=NCCCN1C(=O)c2cccc3cccc(c23)C1=O the IC50 was over 100 µM (MTT; 24 h).
